Assay results from different studies.
A part holds a random share of what one study measured.
UniProt Q9H3Y6, sequence (whole entry, looked up): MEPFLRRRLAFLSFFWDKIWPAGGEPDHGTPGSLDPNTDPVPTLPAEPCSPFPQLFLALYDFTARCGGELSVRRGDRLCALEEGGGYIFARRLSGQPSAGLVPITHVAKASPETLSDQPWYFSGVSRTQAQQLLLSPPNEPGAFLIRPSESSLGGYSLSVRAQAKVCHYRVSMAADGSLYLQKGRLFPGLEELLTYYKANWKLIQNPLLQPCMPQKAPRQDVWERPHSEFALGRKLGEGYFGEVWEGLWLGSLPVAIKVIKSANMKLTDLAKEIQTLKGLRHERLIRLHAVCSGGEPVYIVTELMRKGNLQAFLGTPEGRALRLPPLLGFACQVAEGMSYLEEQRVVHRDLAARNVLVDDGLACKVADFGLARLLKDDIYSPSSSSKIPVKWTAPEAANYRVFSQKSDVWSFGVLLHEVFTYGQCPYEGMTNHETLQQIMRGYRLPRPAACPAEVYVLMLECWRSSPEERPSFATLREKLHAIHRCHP
UniProt P11802, sequence (whole entry, looked up): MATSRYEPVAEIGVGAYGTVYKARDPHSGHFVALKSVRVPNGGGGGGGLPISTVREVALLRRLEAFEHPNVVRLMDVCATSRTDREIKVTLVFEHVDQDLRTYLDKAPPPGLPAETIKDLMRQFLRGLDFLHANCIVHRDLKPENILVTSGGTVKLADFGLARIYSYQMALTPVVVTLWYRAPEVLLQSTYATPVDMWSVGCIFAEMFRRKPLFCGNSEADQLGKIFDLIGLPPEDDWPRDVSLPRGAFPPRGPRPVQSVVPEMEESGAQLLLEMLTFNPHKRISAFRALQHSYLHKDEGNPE
UniProt P06493, sequence (whole entry, looked up): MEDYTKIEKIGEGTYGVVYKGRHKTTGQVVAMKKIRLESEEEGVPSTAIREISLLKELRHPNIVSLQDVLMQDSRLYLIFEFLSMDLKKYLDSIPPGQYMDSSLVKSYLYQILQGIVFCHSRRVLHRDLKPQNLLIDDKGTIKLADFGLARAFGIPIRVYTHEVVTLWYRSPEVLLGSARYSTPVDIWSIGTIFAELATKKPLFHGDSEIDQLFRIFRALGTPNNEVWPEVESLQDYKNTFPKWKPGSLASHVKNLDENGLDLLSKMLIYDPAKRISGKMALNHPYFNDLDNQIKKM
UniProt Q96PF2, sequence (whole entry, looked up): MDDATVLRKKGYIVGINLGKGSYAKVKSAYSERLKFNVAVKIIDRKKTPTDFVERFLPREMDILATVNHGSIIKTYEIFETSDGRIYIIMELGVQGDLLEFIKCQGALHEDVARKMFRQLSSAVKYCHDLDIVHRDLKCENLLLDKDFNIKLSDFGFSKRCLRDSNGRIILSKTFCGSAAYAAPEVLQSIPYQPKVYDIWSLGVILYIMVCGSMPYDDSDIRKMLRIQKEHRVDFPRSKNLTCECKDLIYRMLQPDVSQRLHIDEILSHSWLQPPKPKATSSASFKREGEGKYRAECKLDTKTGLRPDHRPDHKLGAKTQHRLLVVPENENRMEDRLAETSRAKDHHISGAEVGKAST
UniProt O43781, sequence (whole entry, looked up): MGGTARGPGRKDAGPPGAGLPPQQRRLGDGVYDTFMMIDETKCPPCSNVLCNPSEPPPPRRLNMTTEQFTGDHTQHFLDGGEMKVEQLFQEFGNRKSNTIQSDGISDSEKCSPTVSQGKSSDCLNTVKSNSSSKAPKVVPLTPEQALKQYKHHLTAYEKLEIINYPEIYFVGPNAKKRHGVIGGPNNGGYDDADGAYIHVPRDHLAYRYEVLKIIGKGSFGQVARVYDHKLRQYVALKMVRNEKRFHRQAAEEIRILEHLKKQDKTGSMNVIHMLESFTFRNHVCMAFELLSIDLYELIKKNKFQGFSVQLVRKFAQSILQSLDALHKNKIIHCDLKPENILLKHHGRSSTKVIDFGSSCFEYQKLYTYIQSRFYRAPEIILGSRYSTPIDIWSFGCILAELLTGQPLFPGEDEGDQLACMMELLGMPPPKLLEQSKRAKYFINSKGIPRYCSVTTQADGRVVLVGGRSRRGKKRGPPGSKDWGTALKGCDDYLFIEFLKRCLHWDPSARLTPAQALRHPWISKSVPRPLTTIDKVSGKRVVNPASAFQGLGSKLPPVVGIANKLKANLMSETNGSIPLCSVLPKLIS
UniProt P11309, sequence (whole entry, looked up): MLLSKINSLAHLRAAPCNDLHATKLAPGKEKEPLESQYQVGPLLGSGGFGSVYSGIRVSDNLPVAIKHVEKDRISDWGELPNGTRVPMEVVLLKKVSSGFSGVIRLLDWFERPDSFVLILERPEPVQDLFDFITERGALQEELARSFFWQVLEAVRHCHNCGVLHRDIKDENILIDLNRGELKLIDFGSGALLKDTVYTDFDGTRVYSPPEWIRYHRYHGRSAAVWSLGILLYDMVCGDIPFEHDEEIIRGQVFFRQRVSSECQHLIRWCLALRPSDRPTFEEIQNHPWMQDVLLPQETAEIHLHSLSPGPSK
UniProt Q15418, sequence (whole entry, looked up): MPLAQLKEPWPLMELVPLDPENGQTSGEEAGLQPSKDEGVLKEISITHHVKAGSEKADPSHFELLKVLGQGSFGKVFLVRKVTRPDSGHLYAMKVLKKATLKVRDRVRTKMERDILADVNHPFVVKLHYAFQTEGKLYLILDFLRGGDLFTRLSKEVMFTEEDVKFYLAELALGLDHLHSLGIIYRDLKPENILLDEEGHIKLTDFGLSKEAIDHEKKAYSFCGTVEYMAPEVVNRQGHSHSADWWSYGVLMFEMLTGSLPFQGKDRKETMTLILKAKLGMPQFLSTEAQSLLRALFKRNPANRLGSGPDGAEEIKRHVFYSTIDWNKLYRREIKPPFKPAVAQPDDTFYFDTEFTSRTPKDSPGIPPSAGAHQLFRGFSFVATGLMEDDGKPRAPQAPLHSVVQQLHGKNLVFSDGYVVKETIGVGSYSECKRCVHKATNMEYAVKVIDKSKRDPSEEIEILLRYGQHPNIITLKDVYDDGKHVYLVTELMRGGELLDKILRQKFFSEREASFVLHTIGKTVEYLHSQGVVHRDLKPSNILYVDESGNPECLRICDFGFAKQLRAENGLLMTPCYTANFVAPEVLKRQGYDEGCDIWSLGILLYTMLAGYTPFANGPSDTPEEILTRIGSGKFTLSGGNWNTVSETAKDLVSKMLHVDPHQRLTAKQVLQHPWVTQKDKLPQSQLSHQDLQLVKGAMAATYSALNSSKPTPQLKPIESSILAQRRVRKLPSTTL
UniProt P54760, sequence (whole entry, looked up): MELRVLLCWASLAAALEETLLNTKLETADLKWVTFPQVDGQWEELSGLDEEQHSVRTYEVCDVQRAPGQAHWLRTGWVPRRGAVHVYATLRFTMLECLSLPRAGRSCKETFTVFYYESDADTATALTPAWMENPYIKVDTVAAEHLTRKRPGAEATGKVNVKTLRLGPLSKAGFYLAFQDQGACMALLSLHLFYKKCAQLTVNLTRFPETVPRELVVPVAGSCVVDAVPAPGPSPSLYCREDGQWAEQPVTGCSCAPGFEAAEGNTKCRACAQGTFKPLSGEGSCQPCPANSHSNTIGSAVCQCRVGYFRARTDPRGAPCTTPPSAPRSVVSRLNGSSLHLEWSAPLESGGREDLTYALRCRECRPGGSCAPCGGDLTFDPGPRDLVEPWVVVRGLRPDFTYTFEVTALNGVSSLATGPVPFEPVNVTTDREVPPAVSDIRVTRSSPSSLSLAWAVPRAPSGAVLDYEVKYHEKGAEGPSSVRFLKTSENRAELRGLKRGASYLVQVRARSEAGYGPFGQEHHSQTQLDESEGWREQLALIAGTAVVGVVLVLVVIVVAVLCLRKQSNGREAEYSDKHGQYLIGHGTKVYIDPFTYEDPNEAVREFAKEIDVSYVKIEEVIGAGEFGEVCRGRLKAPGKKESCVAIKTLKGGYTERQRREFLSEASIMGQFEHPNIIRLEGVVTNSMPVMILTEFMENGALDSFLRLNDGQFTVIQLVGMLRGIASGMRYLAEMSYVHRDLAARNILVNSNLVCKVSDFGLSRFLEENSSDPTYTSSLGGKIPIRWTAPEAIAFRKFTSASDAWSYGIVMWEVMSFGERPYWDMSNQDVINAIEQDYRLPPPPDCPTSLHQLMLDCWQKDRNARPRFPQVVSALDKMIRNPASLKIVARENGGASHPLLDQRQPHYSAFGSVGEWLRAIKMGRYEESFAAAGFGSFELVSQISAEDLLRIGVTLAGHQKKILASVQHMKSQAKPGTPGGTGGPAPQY
UniProt P30530, sequence (whole entry, looked up): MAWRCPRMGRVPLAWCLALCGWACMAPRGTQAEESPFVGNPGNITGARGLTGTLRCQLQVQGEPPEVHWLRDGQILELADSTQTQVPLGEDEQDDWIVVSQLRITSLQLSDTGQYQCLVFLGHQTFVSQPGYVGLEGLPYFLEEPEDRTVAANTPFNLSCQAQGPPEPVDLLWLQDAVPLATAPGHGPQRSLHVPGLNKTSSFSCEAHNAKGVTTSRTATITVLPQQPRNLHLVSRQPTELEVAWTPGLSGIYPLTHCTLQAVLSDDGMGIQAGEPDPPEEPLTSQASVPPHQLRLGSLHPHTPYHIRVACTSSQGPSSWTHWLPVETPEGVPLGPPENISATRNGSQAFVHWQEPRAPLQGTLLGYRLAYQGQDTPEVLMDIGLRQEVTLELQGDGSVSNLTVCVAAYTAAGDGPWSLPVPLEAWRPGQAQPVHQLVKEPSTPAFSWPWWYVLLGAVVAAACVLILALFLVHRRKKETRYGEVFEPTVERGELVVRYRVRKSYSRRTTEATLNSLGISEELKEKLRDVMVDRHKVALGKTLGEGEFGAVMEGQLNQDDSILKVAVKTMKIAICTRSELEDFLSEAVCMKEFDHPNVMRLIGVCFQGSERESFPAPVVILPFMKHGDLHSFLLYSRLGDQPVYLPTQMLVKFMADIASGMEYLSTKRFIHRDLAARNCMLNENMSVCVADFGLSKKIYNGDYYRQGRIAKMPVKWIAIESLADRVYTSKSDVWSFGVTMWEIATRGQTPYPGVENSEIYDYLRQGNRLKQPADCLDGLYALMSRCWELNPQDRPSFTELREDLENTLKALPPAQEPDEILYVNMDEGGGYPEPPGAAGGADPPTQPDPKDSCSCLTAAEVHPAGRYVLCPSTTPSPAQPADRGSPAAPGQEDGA

Series 1
SMILES: COc1ccc2[nH]c3c4[nH]c5ccc(OC)cc5c4c4c(c3c2c1)C(=O)NC4=O
Read-out: binding
Concentration: 1 µM
The remaining binding was 52% (Phosphorylase b kinase gamma catalytic chain, liver/testis isoform (PHKG2, Homo sapiens, UniProt P15735)).
The remaining binding was 93% (Fibroblast growth factor receptor 3 (FGFR3, Homo sapiens, UniProt P22607); competition with immobilised ligand).
It gave 75% for remaining binding (Mitogen-activated protein kinase kinase kinase kinase 2 (MAP4K2, Homo sapiens, UniProt Q12851); competition with immobilised ligand).
It gave 46% for remaining binding (Serine/threonine-protein kinase pim-1 (PIM1, Homo sapiens, UniProt P11309)).
The remaining binding was 100% (Tyrosine-protein kinase Srms (SRMS, Homo sapiens, UniProt Q9H3Y6); competition with immobilised ligand).
Cyclin-dependent kinase-like 2 (CDKL2, Homo sapiens, UniProt Q92772); competition with immobilised ligand — remaining binding: 92%.
It gave 100% for remaining binding (Ribosomal protein S6 kinase alpha-1, C-terminal kinase domain (RPS6KA1, Homo sapiens, UniProt Q15418); competition with immobilised ligand).
For Maternal embryonic leucine zipper kinase (MELK, Homo sapiens, UniProt Q14680): remaining binding read 43%.
The remaining binding was 53% (Wee1-like protein kinase (WEE1, Homo sapiens, UniProt P30291); competition with immobilised ligand).
The remaining binding was 75% (Protein kinase C epsilon type (PRKCE, Homo sapiens, UniProt Q02156)).
Activated CDC42 kinase 1 (TNK2, Homo sapiens, UniProt Q07912); competition with immobilised ligand — remaining binding: 69%.
Activin receptor type-1B (ACVR1B, Homo sapiens, UniProt P36896); competition with immobilised ligand — remaining binding: 100%.
For Serine/threonine-protein kinase SBK1 (SBK1, Homo sapiens, UniProt Q52WX2); competition with immobilised ligand: remaining binding read 95%.
It gave 79% for remaining binding (Dual specificity protein kinase CLK3 (CLK3, Homo sapiens, UniProt P49761)).
The remaining binding was 82% (Myosin light chain kinase 2, skeletal/cardiac muscle (MYLK2, Homo sapiens, UniProt Q9H1R3); competition with immobilised ligand).
It gave 20% for remaining binding (Mitogen-activated protein kinase kinase kinase 7 (MAP3K7, Homo sapiens, UniProt O43318); competition with immobilised ligand).
It gave 91% for remaining binding (Cyclin-dependent kinase 15 (CDK15, Homo sapiens, UniProt Q96Q40); competition with immobilised ligand).
The remaining binding was 29% (Calcium-dependent protein kinase 1 (CDPK1, Plasmodium falciparum, UniProt P62344)).
Myosin-IIIb (MYO3B, Homo sapiens, UniProt Q8WXR4); competition with immobilised ligand — remaining binding: 100%.

Series 2
Target: Diamine acetyltransferase 1 (Homo sapiens, UniProt P21673)
Action: inhibitor
Concentration: 10 µM
Relative to: control
Residues (P21673 1-171): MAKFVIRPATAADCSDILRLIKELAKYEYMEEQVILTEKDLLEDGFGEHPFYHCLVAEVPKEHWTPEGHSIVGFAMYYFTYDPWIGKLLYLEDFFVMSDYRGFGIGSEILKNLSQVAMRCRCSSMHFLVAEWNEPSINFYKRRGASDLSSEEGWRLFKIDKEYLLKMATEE
`COc1ccc(-c2coc3c([C@@H]4O[C@H](CO)[C@@H](O)[C@H](O)[C@H]4O)c(O)ccc3c2=O)cc1` has a remaining activity of 90.2%.
The remaining activity of `COC(=O)c1cccnc1` is reported as 92.7%.
`C[C@H](N)C(=O)O` has a remaining activity of 91.3%.
`COc1c2ccoc2nc2c(O)cccc12` has a remaining activity of 98.8%.
`O=c1c(-c2ccc(O)cc2)coc2cc(O[C@@H]3O[C@H](CO)[C@@H](O)[C@H](O)[C@H]3O)ccc12` gave a remaining activity of 76%.
`COc1cc2c[n+](C)c3c4cc5c(cc4ccc3c2cc1OC)OCO5` gave a remaining activity of 106%.
For `NC(Cc1c[nH]c2ccccc12)C(=O)O` (racemic), the remaining activity was 92.6%.
For `COc1c2ccoc2cc2oc(=O)ccc12`, the remaining activity was 100%.
`O=C(/C=C/c1ccc(O)c(O)c1)O[C@@H]1C[C@](O)(C(=O)O)C[C@@H](O)[C@H]1O` gave a remaining activity of 93.5%.
For `CCC/C=C1/OC(=O)c2ccccc21`, the remaining activity was 95.8%.
With `COc1cc2cc(Oc3ccc4ccc(=O)oc4c3)c(=O)oc2cc1O` the remaining activity was 85.6%.
With `C[C@@H]1CC[C@@]2(OC1)O[C@H]1C[C@H]3[C@@H]4CC=C5C[C@@H](O[C@@H]6O[C@H](CO)[C@@H](O)[C@H](O)[C@H]6O[C@@H]6O[C@@H](C)[C@H](O)[C@@H](O)[C@H]6O)CC[C@]5(C)[C@H]4CC[C@]3(C)[C@@]1(O)[C@@H]2C` the remaining activity was 85.7%.
With `C[C@H]1[C@@H](O)CC[C@@H]2[C@]1(C)CC[C@H]1[C@@]2(C)CC[C@@]2(C)[C@@H]3CC(C)(C)CC[C@]3(C)CC[C@]12C` the remaining activity was 98.6%.
`C[C@@]12C[C@@]3(O)O[C@@H](O1)[C@]1(COC(=O)c4ccccc4)[C@H]3C[C@@]12O[C@@H]1O[C@H](COC(=O)c2ccccc2)[C@@H](O)[C@H](O)[C@H]1O` has a remaining activity of 108%.

Series 3
SMILES: O=S(=O)(NCCNC/C=C/c1ccc(Br)cc1)c1cccc2cnccc12
Read-out: enzyme activity
Action: inhibitor
Concentration: 0.5 µM
Relative to: control
It gave 99.2% for remaining activity (Homeodomain-interacting protein kinase 2 (HIPK2, Homo sapiens, UniProt Q9H2X6)).
For Calcium/calmodulin-dependent protein kinase type II subunit beta (CAMK2B, Homo sapiens, UniProt Q13554): remaining activity read 93.3%.
For Tyrosine-protein kinase Srms (SRMS, Homo sapiens, UniProt Q9H3Y6): remaining activity read 97.8%.
It gave 82.4% for remaining activity (Tyrosine-protein kinase Blk (BLK, Homo sapiens, UniProt P51451)).
Homeodomain-interacting protein kinase 4 (HIPK4, Homo sapiens, UniProt Q8NE63) — remaining activity: 97.7%.
It gave 106% for remaining activity (Ephrin type-B receptor 1 (EPHB1, Homo sapiens, UniProt P54762)).
It gave 93.1% for remaining activity (Serine/threonine-protein kinase WNK3 (WNK3, Homo sapiens, UniProt Q9BYP7)).
The remaining activity was 71.8% (Ribosomal protein S6 kinase alpha-6 (RPS6KA6, Homo sapiens, UniProt Q9UK32)).
It gave 108% for remaining activity (Ephrin type-B receptor 4 (EPHB4, Homo sapiens, UniProt P54760)).
It gave 93.3% for remaining activity (Cyclin-dependent kinase 1, with cyclin B (CDK1, Homo sapiens, UniProt P06493)).
For Phosphorylase b kinase gamma catalytic chain, skeletal muscle/heart isoform (PHKG1, Homo sapiens, UniProt Q16816): remaining activity read 91.6%.
For Ephrin type-A receptor 4 (EPHA4, Homo sapiens, UniProt P54764): remaining activity read 86.8%.
The remaining activity was 100% (Serine/threonine-protein kinase 17A (STK17A, Homo sapiens, UniProt Q9UEE5)).
Dual specificity tyrosine-phosphorylation-regulated kinase 3 (DYRK3, Homo sapiens, UniProt O43781) — remaining activity: 83.5%.
The remaining activity was 106% (Cyclin-dependent kinase 4, with cyclin D3 (CDK4, Homo sapiens, UniProt P11802)).
MAP kinase-activated protein kinase 3 (MAPKAPK3, Homo sapiens, UniProt Q16644) — remaining activity: 97.8%.
3-phosphoinositide-dependent protein kinase 1 (PDPK1, Homo sapiens, UniProt O15530) — remaining activity: 94.1%.
Cyclin-dependent kinase 6, with cyclin D3 (CDK6, Homo sapiens, UniProt Q00534) — remaining activity: 96.6%.
The remaining activity was 94.4% (Serine/threonine-protein kinase 16 (STK16, Homo sapiens, UniProt O75716)).
It gave 39.4% for remaining activity (Ribosomal protein S6 kinase alpha-5 (RPS6KA5, Homo sapiens, UniProt O75582)).
Mitogen-activated protein kinase kinase kinase kinase 4 (MAP4K4, Homo sapiens, UniProt O95819) — remaining activity: 43.8%.
For Tyrosine-protein kinase receptor UFO (AXL, Homo sapiens, UniProt P30530): remaining activity read 112%.
It gave 104% for remaining activity (Testis-specific serine/threonine-protein kinase 2 (TSSK2, Homo sapiens, UniProt Q96PF2)).

Series 4
SMILES: COc1ccc2c(c1)O[C@@H](c1ccc(OC)c(OC)c1)C[C@H]2NC(=O)C1(c2ccc3c(c2)OC(F)(F)O3)CC1
Concentration: 1 µM
The remaining binding was 89% (Serine/threonine-protein kinase PAK 4 (PAK4, Homo sapiens, UniProt O96013); cell-free assay, competition with immobilised ligand).
The remaining binding was 78% (Tyrosine-protein kinase ABL1, phosphorylated (ABL1, Homo sapiens, UniProt P00519, F317I); cell-free assay, competition with immobilised ligand).
For Bone morphogenetic protein receptor type-1B (BMPR1B, Homo sapiens, UniProt O00238); cell-free assay, competition with immobilised ligand: remaining binding read 71%.
The remaining binding was 100% (Ephrin type-A receptor 5 (EPHA5, Homo sapiens, UniProt P54756); cell-free assay, competition with immobilised ligand).
Serine/threonine-protein kinase 35 (STK35, Homo sapiens, UniProt Q8TDR2); cell-free assay, competition with immobilised ligand — remaining binding: 98%.
For Tyrosine-protein kinase SYK (SYK, Homo sapiens, UniProt P43405); cell-free assay, competition with immobilised ligand: remaining binding read 100%.
It gave 100% for remaining binding (Interferon-induced, double-stranded RNA-activated protein kinase (EIF2AK2, Homo sapiens, UniProt P19525); cell-free assay, competition with immobilised ligand).
For Serine/threonine-protein kinase D3 (PRKD3, Homo sapiens, UniProt O94806); cell-free assay, competition with immobilised ligand: remaining binding read 97%.
For Mitogen-activated protein kinase 15 (MAPK15, Homo sapiens, UniProt Q8TD08); cell-free assay, competition with immobilised ligand: remaining binding read 100%.
It gave 100% for remaining binding (Serine/threonine-protein kinase Nek6 (NEK6, Homo sapiens, UniProt Q9HC98); cell-free assay, competition with immobilised ligand).
Serine/threonine-protein kinase 17B (STK17B, Homo sapiens, UniProt O94768); cell-free assay, competition with immobilised ligand — remaining binding: 100%.
Aurora kinase A (AURKA, Homo sapiens, UniProt O14965); cell-free assay, competition with immobilised ligand — remaining binding: 92%.
Inhibitor of nuclear factor kappa-B kinase subunit epsilon (IKBKE, Homo sapiens, UniProt Q14164); cell-free assay, competition with immobilised ligand — remaining binding: 70%.
For Serine/threonine-protein kinase SIK1 (SIK1, Homo sapiens, UniProt P57059); competition binding: remaining binding read 100%.
Cyclin-dependent kinase 2 (CDK2, Homo sapiens, UniProt P24941); cell-free assay, competition with immobilised ligand — remaining binding: 99%.
Mitogen-activated protein kinase 1 (MAPK1, Homo sapiens, UniProt P28482); cell-free assay, competition with immobilised ligand — remaining binding: 100%.
For Serine/threonine-protein kinase PRP4 homolog (PRPF4B, Homo sapiens, UniProt Q13523); cell-free assay, competition with immobilised ligand: remaining binding read 83%.
Serine/threonine-protein kinase PAK 2 (PAK2, Homo sapiens, UniProt Q13177); cell-free assay, competition with immobilised ligand — remaining binding: 100%.
For Serine/threonine-protein kinase ICK (CILK1, Homo sapiens, UniProt Q9UPZ9); binding, competition with immobilised ligand: remaining binding read 74%.
The remaining binding was 89% (Ephrin type-A receptor 6 (EPHA6, Homo sapiens, UniProt Q9UF33); cell-free assay, competition with immobilised ligand).
It gave 94% for remaining binding (Cyclin-dependent kinase-like 3 (CDKL3, Homo sapiens, UniProt Q8IVW4); cell-free assay, competition with immobilised ligand).
It gave 93% for remaining binding (Cyclin-dependent kinase 19 (CDK19, Homo sapiens, UniProt Q9BWU1); competition binding).

Repeated from above (series 4):
For Serine/threonine-protein kinase PRP4 homolog (PRPF4B, Homo sapiens, UniProt Q13523); cell-free assay, competition with immobilised ligand: remaining binding read 83%.
The remaining binding was 89% (Ephrin type-A receptor 6 (EPHA6, Homo sapiens, UniProt Q9UF33); cell-free assay, competition with immobilised ligand).
The remaining binding was 78% (Tyrosine-protein kinase ABL1, phosphorylated (ABL1, Homo sapiens, UniProt P00519, F317I); cell-free assay, competition with immobilised ligand).
For Bone morphogenetic protein receptor type-1B (BMPR1B, Homo sapiens, UniProt O00238); cell-free assay, competition with immobilised ligand: remaining binding read 71%.
Serine/threonine-protein kinase 17B (STK17B, Homo sapiens, UniProt O94768); cell-free assay, competition with immobilised ligand — remaining binding: 100%.
For Serine/threonine-protein kinase SIK1 (SIK1, Homo sapiens, UniProt P57059); competition binding: remaining binding read 100%.
It gave 94% for remaining binding (Cyclin-dependent kinase-like 3 (CDKL3, Homo sapiens, UniProt Q8IVW4); cell-free assay, competition with immobilised ligand).
